Measured values of several laboratories.
Protocols differ between the studies behind these lines. ± gives the spread as reported.

| SMILES | cell line | assay | setting | viability |
| --- | --- | --- | --- | --- |
| C=CC1=C(C)C2=NC1=Cc1c(C)c(CCC(=O)O)c3[n]1[Co][n]1c(c(C)c(C=C)c1=C2)=CC1=NC(=C3)C(CCC(=O)O)=C1C | Huh5.15 replicon cells | MTT | 10 or 20 µM, 24 and 48 h | no effect |
| CC1(C)CC[C@]2(C)CC[C@]3(C)[C@H]([C@@H](O)C[C@@H]4[C@@]5(C)CCCC(C)(C)[C@@H]5CC[C@]43C)[C@@H]2C1 | 3T3-L1 | MTT | concentration not given, 72 h, together with: insulin 30 nM | 101% |
| O=C1NN=C(c2ccccc2)/C1=N/Nc1ccccc1 | WISH | cell growth or viability, MTT | 100 µM | ~78% |
| CCOP(=O)(CC(=O)Nc1ccc(S(=O)(=O)N(CC(N)=O)c2ccc(N(CC(N)=O)S(=O)(=O)c3ccc(OC)cc3)c3ccccc23)cc1)OCC | mouse primary cortical neurons | CCK-8 | up to 100 µM, 24 h | not toxic |
| O=C1/C(=C/c2ccc3c(c2)OCCO3)SC(=S)N1[C@@H]1O[C@H](CO)[C@@H](O)[C@H](O)[C@H]1O | WISH | cell growth or viability, MTT | 100 µM, 48 h | ~75% |
| COc1ccc([C@@H]2CC(=O)c3c(O)cc(O[C@@H]4O[C@H](CO[C@@H]5O[C@@H](C)[C@H](O)[C@@H](O)[C@H]5O)[C@@H](O)[C@H](O)[C@H]4O)cc3O2)cc1O | MRC5 | cell growth or viability, MTS | 50 µg/mL, 72 h | 89.4% |
| CC(C)=CCc1cc2c(cc1O)OC[C@H]1c3ccc(O)c(CC=C(C)C)c3O[C@@H]21 | 3T3-L1 | MTT | concentration not given | 78.3 ± 0.7% |
| COc1ccc(C(=O)Nc2cccc(S(N)(=O)=O)c2)cc1OC | BHK-21 | cell growth or viability, MTT | 100 µM, serum-free | 98% |
| CC(C)=CCc1c(O)ccc2c1O[C@H]1c3cc4c(cc3OC[C@@H]21)OC(C)(C)C=C4 | 3T3-L1 | MTT | concentration not given | 36.9 ± 0.8% |
| COc1cc2oc3cc(O)c(OC)c(CC=C(C)C)c3c(=O)c2c(O)c1CC=C(C)C | 3T3-L1 | MTT | concentration not given, 72 h, together with: insulin 30 nM | 101% |
| COc1ccc2c(c1CC=C(C)C)O[C@H]1c3cc(CC=C(C)C)c(O)cc3OC[C@@H]21 | 3T3-L1 | MTT | concentration not given | 85.2 ± 1.8% |
| Cc1cc(C)cc(C(=O)Nc2cccc(S(N)(=O)=O)c2)c1 | BHK-21 | cell growth or viability, MTT | 100 µM, serum-free | 34% |
| C[C@H]1[C@@H](O)CC[C@@H]2[C@]1(C)CC[C@H]1[C@@]2(C)CC[C@@]2(C)[C@@H]3CC(C)(C)CC[C@]3(C)CC[C@]12C | 3T3-L1 | MTT | concentration not given, 72 h, together with: insulin 30 nM | 102% |
| COc1c(CC=C(C)C)c(O)cc2c1-c1oc3c(CC=C(C)C)c(O)ccc3c1CO2 | 3T3-L1 | MTT | concentration not given | 54.1 ± 0.9% |

Some of these lines once more:
| SMILES | cell line | assay | setting | viability |
| --- | --- | --- | --- | --- |
| COc1ccc([C@@H]2CC(=O)c3c(O)cc(O[C@@H]4O[C@H](CO[C@@H]5O[C@@H](C)[C@H](O)[C@@H](O)[C@H]5O)[C@@H](O)[C@H](O)[C@H]4O)cc3O2)cc1O | MRC5 | cell growth or viability, MTS | 50 µg/mL, 72 h | 89.4% |
| CC(C)=CCc1cc2c(cc1O)OC[C@H]1c3ccc(O)c(CC=C(C)C)c3O[C@@H]21 | 3T3-L1 | MTT | concentration not given | 78.3 ± 0.7% |
